Results pooled from the literature.
Each line is one published result; not all experiments were run side by side. Numbers after ± are the reported error.
BCHE: Cholinesterase (BCHE, Homo sapiens, UniProt P06276)
Sequence of UniProt P06276 (whole entry, looked up): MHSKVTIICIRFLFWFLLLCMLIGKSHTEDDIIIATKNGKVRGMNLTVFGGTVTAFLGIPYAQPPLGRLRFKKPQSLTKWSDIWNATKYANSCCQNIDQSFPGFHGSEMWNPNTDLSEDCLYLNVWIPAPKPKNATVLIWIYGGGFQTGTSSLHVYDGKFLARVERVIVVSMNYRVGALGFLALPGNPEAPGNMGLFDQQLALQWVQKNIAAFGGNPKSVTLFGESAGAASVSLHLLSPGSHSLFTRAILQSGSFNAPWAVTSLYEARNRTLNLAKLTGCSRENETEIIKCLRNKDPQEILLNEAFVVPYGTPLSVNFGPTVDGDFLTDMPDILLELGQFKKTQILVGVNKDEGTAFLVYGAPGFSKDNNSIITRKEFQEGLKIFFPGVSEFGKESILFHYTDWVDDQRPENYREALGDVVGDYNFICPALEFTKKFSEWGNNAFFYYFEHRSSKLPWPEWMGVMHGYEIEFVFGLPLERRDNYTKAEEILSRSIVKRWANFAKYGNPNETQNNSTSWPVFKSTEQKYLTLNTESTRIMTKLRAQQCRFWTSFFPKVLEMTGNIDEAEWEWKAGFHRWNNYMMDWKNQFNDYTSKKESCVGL
Voltage-gated sodium channel: Voltage-gated sodium channel (Musca domestica, UniProt Q25439)
AR: Androgen receptor (AR, Homo sapiens, UniProt P10275)
Sequence of UniProt P10275 (whole entry, looked up): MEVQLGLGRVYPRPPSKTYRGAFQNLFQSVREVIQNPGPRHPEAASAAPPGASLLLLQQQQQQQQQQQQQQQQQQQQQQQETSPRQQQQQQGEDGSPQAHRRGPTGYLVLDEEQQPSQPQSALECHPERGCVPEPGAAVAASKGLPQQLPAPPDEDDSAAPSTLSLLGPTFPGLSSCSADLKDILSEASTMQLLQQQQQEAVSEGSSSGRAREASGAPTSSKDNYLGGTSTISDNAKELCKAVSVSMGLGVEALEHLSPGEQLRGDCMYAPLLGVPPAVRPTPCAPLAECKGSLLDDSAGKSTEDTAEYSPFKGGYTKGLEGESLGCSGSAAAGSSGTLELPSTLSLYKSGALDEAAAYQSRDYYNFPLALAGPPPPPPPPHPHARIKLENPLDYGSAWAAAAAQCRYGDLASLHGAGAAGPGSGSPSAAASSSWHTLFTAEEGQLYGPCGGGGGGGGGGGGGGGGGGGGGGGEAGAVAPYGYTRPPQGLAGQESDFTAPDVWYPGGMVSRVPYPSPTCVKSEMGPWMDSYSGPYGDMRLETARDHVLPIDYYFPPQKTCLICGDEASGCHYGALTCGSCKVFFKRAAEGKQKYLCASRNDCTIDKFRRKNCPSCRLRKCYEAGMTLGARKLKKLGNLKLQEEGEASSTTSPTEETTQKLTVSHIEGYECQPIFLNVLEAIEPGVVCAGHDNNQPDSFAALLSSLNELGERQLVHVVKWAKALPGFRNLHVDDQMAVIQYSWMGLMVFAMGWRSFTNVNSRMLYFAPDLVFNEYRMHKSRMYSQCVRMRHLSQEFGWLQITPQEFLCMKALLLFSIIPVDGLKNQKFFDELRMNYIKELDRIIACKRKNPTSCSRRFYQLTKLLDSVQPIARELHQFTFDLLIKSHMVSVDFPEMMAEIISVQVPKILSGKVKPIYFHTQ
GABA-A receptor; alpha-1/beta-2/gamma-2: GABA-A receptor; alpha-1/beta-2/gamma-2 (Rattus norvegicus, UniProt P18508+P62813+P63138)
Sequence of UniProt P63138 (whole entry, looked up): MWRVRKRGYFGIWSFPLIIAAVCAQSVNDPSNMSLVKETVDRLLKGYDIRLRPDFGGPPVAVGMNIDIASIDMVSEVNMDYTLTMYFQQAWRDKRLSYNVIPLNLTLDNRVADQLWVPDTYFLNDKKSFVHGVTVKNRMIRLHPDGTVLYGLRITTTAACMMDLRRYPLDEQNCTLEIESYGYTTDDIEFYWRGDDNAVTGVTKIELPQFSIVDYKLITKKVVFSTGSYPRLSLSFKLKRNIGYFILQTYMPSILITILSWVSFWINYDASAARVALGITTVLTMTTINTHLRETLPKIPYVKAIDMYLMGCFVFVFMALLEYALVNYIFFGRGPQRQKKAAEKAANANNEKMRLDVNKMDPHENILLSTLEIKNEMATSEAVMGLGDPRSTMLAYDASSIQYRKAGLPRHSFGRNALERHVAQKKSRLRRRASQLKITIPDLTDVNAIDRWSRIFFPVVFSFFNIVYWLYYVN
Sequence of UniProt P62813 (whole entry, looked up): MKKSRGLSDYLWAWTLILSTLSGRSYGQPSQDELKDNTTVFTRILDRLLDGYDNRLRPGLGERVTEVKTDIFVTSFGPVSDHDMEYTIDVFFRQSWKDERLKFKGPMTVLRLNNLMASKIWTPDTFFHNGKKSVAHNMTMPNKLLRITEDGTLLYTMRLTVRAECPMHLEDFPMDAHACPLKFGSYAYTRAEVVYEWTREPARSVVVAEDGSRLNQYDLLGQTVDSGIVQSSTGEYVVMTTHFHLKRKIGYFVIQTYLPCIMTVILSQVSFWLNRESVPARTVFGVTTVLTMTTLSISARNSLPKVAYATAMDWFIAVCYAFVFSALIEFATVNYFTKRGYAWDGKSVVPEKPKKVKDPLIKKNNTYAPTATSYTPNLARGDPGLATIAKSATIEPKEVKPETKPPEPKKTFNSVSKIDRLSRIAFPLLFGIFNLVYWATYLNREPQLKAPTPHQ
Sequence of UniProt P18508 (whole entry, looked up): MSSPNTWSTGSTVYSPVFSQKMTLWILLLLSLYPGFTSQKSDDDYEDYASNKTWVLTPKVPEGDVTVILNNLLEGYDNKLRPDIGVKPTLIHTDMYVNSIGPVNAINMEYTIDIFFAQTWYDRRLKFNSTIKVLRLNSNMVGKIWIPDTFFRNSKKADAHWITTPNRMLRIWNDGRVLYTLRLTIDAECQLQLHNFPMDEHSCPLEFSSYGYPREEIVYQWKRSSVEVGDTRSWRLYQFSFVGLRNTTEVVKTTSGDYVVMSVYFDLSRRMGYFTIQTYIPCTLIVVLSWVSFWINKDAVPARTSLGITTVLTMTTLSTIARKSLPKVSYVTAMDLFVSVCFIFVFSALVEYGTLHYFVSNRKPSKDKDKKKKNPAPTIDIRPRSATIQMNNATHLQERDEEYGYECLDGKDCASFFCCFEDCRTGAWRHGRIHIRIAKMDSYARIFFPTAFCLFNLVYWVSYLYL
gag-pol integrase: Gag-Pol polyprotein, integrase (gag-pol, Human immunodeficiency virus 1, UniProt P12497)
Sequence of UniProt Q7RTX7 (whole entry, looked up): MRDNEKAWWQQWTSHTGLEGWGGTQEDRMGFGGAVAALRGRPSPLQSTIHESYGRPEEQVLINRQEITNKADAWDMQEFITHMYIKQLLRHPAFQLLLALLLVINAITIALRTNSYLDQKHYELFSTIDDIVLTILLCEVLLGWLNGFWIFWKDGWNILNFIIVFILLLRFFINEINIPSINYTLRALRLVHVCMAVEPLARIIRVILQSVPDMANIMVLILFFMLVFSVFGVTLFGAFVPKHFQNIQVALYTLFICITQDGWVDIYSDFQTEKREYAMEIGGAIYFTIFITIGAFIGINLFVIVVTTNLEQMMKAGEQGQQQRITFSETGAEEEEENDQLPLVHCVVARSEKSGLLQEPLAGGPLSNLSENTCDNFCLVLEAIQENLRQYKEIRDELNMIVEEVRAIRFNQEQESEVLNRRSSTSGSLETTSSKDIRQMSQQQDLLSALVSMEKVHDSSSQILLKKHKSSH
Sequence of UniProt P18825 (whole entry, looked up): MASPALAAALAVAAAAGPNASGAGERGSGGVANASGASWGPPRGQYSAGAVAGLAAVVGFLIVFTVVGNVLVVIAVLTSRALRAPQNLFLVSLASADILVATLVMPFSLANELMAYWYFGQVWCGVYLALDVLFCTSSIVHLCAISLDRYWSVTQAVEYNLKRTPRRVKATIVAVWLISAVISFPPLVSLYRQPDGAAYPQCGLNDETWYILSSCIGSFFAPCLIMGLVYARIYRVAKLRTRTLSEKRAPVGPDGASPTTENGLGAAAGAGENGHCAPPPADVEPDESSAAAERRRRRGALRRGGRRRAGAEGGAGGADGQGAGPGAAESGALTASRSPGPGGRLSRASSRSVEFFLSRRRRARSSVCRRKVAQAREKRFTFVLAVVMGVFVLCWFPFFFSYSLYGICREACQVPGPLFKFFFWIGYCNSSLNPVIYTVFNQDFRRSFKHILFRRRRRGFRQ
Sequence of UniProt Q96P56 (whole entry, looked up): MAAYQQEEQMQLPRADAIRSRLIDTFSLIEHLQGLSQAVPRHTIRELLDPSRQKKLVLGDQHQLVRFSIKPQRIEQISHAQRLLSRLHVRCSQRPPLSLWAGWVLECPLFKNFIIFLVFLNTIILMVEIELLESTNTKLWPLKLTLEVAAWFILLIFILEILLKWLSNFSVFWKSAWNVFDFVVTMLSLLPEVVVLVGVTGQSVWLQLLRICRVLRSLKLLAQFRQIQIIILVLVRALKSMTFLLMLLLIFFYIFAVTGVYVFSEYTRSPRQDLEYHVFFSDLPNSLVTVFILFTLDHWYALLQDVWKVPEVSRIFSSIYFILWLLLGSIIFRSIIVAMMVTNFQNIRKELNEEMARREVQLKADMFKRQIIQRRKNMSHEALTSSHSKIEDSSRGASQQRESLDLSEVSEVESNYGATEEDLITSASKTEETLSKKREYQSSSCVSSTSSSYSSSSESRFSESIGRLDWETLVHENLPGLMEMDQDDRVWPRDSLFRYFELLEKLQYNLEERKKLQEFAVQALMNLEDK
Sequence of UniProt P08173 (whole entry, looked up): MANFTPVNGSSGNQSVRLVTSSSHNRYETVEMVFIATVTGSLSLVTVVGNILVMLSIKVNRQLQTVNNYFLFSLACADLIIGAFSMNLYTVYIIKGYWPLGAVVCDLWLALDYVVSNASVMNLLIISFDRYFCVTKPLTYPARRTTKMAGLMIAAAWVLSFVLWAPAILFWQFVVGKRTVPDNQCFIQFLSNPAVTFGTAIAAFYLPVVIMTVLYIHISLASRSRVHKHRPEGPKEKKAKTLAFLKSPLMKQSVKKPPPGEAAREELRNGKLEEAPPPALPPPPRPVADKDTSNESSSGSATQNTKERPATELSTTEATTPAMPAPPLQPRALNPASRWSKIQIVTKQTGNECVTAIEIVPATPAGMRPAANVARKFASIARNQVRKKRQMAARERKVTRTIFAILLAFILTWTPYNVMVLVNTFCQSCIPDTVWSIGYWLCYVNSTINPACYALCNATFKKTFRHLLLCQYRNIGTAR

Compound | target | test | system | conditions | quantity | result
Cc1cc(/C=C/C#N)cc(C)c1Nc1ccnc(Nc2ccc(C#N)cc2)n1 | Gag-Pol polyprotein, reverse transcriptase (gag-pol, Human immunodeficiency virus type 1 group M subtype B, UniProt P04585) | enzyme activity, inhibitor |  | 30 min, room temperature | EC50 | 0.12 ± 0.06 µM
CCCCCCC[N+](CC)(CC)CCCCc1ccc(Cl)cc1 | BCHE | inhibitor |  | with Triton | IC50 | 7.83 ± 1.79 µM
CC1(C)[C@H](C=C(Cl)Cl)[C@H]1C(=O)OCc1c(F)c(F)cc(F)c1F | Voltage-gated sodium channel | membrane potential, activator, FLIPR | HEK293 expressing house fly VGSC |  | EC50 | 1.77 µM
O=C(NCCN1CCC2(CC1)C(=O)NCN2c1cccc(F)c1)c1ccc(F)c(F)c1 | BCHE | inhibitor |  | with Triton | IC50 | 2.7 ± 1.94 µM
C[N+](C)(C)CCO | Flvcr2 (Mus musculus, UniProt Q91X85) | choline uptake, isotopic dilution | proteoliposomes |  | EC50 | 0.033 µM
C[C@]12CC[C@H]3[C@@H]([C@H](O)CC4=CC(=O)CC[C@@]43C)[C@@H]1CC[C@@H]2O | AR | cell-based |  |  | EC50 | 86 µM
CCCCC/C=C\C/C=C\C/C=C\C/C=C\CCCC(=O)Nc1ccc(O)cc1 | 20S proteasome human | proteasome activity, activator |  |  | EC50 | 32 µM
CC1(C)C(C=C(Cl)Cl)C1C(=O)OC(C#N)c1cccc(Oc2ccccc2)c1 (stereo not drawn) | Voltage-gated sodium channel | membrane potential, activator, FLIPR | HEK293 |  | EC50 | 0.0389 µM
CC[C@H](C)[C@H]1O[C@]2(C=C[C@@H]1C)C[C@@H]1C[C@@H](C/C=C(\C)[C@@H](O[C@H]3C[C@H](OC)[C@@H](O[C@H]4C[C@H](OC)[C@@H](O)[C@H](C)O4)[C@H](C)O3)[C@@H](C)/C=C/C=C3\CO[C@@H]4[C@H](O)C(C)=C[C@@H](C(=O)O1)[C@]34O)O2 | GABA-A receptor; alpha-1/beta-2/gamma-2 | chloride current, agonist, whole-cell patch clamp | HEK293 expressing GABAA | 30 s | EC50 | 13 µM
O=C1C(O)=Cc2ccccc2/C1=N\Nc1ccc(Cl)cc1 | gag-pol integrase | 3'-processing activity, inhibitor |  | wild-type integrase | IC50 | > 100 µM
COc1cc(C(=O)N2CC[C@@H](O)[C@@H](N)C2)cc2nc(-c3cc4ccccc4n3CC3CC3)n(C)c12 | ADRA2C (Homo sapiens, UniProt P18825) | agonist, TR-FRET |  |  | EC50 | > 31.6 µM
C[C@@H]1NC(=O)N[C@@H]1CCCCCC(=O)N1CCN(C(=O)c2ccc(/C=C/c3n[nH]c4cc(-c5ccc(S(=O)(=O)F)cc5)ccc34)cc2)CC1 | ABL1 (Homo sapiens, UniProt P00519) | covalent labeling, streptavidin Western blot | recombinant protein | 1 h | EC50 | 0.6 µM
Cc1cc(N2CCNCC2)nc2ccccc12 | CHRM4 (Homo sapiens, UniProt P08173) | ERK1/2 phosphorylation, agonist | CHO cells |  | EC50 | > 20 µM
Cc1nnc(NN)c2c1[nH]c1ccccc12 | gag-pol integrase | 3'-processing activity, inhibitor |  | wild-type integrase | IC50 | > 100 µM
CCCCC/C=C\C/C=C\C/C=C\C/C=C\CCCC(=O)NCCO | KCNMA1 (Homo sapiens, UniProt Q12791) | channel open probability, activator, inside-out patch clamp |  |  | EC50 | 1.1 µM
NCc1cc(=O)[nH]o1 | GABA-A receptor; alpha-1/beta-2/gamma-2 | membrane potential, agonist, QP-DHM fluorescence | HEK293 expressing GABAA |  | EC50 | 0.24 µM
C[C@]12C[C@@H](O)[C@H]3[C@@H](CCC4=CC(=O)CC[C@@]43C)[C@@H]1CC[C@@H]2O | AR | cell-based |  |  | EC50 | 21 µM
C=C(C)[C@@H]1CCC(C(=O)O)=C[C@H]1c1c(O)cc(CCCCC)cc1O | CatSper channel complex (Homo sapiens, UniProt Q7RTX7+Q86XQ3+Q8NEC5+Q96P56) | intracellular Ca2+ increase, agonist, Fluo-4 fluorimetry | human sperm |  | EC50 | 1.82 ± 1.34 µM

For quick reference, copied from above:
Compound | target | test | system | conditions | quantity | result
COc1cc(C(=O)N2CC[C@@H](O)[C@@H](N)C2)cc2nc(-c3cc4ccccc4n3CC3CC3)n(C)c12 | ADRA2C (Homo sapiens, UniProt P18825) | agonist, TR-FRET |  |  | EC50 | > 31.6 µM
C[C@@H]1NC(=O)N[C@@H]1CCCCCC(=O)N1CCN(C(=O)c2ccc(/C=C/c3n[nH]c4cc(-c5ccc(S(=O)(=O)F)cc5)ccc34)cc2)CC1 | ABL1 (Homo sapiens, UniProt P00519) | covalent labeling, streptavidin Western blot | recombinant protein | 1 h | EC50 | 0.6 µM
